Experimental data gathered from unrelated publications.
± gives the spread as reported.
B1: VEGF-D; sequence looked up; chain FAATFYDIETLKVIDEEWQRTQCSPRETCVEVASELGKSTNTFFKPPCVNVFRCGGCCNEESLICMNTSTSYISKQLFEISVPLTSVPELVPVKVANHTGCKCLPTAPRHPYSIIRR
B2: trivalent; chain KRRQTSMTDFYHSKRRLIFSGGSGGSGGSGGSGGSGGSKRRQTSMTDFYHSKRRLIFSGGSGGSGGSGGSGGSGGSKRRQTSMTDFYHSKRRLIFS
UniProt P05186, sequence (whole entry, looked up): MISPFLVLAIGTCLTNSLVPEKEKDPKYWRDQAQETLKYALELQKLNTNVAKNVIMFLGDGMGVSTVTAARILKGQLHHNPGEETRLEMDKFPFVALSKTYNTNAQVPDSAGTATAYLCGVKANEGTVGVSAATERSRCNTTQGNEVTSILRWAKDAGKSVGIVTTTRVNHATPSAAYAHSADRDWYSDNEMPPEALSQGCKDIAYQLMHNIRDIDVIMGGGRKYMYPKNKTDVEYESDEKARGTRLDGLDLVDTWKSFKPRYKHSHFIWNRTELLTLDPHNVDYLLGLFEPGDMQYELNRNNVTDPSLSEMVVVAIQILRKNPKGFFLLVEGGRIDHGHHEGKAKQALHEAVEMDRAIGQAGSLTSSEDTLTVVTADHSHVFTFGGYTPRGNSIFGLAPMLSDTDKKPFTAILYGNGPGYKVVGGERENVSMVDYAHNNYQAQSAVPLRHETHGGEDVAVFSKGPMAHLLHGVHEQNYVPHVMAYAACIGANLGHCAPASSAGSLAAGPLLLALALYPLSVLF

| Substance | tested on | test | system | conditions | how to read | endpoint | value |
| --- | --- | --- | --- | --- | --- | --- | --- |
| Cc1cc(C2CCCCC2)n(O)c(=O)c1 | HIF ODD | luciferase reporter, activator | SH-SY5Y | 0.05 to 15 µM | reference: background | maximum activation | 8.5 ± 0.5 fold |
| KTGPLGGTRRGRGPRGRKLPSKVASVEKIEEDDNTNKIEIFNNWNVSS | actin, rabbit skeletal muscle | pyrene actin polymerization | peptide | concentration not given, peptide without capping protein, added: 1 µM actin, 20% pyrene | reference: actin alone | relative polymerization rate | 0.98 |
| human clusterin | amyloid beta 1-40 oligomers from disaggregation |  |  | 10 to 20 nM, 21 °C |  | persistence of Aβ complexes | > 50 h |
| COc1ccc(-c2nc3ccccc3s2)cc1OCc1nnc(-c2ccccc2)o1 |  | hind limb tonic extension | albino mouse, MES-induced seizure | ip, 0.5 h |  | minimal effective dose | 30 mg/kg |
| Nc1nc2ccc(SC(F)(F)F)cc2s1 | MeAIB/glutamine transporter, rat | MeAIB uptake | hippocampal neurons, rat | 20 µM, added: [14C]MeAIB 23.4 µM |  | inhibition | > 90% |
| Ac-DNCPYVPNA-NH2 (N-acetyl, C-amide) | mouse cathepsin G | enzyme activity | neutrophil lysate | 1.25 or 2.5 mM, pH 8.0, 37 °C |  | cathepsin G activity | no effect |
| Cn1c(-c2ccc(C(N)=O)cc2F)nnc1C(C)(C)Oc1c(F)cc(Cl)cc1F |  |  | young non-Japanese humans, plasma | oral, 0.7 mg, day 1, single dose |  | mean Cmax | 0.0221 ng/mL |
| Ac-DNCQYVYNV-NH2 (N-acetyl, C-amide) | mouse neutrophil elastase | inhibitor | peptide, wild type neutrophil lysate | 2.5 mM, 30 min preincubation, pH 8.0, 37 °C, added: MeOSuc-AAPV-pNA 1 mM |  | inhibition | 89% |
| DPRLG | HPC4 antibody (mouse) | binding, yeast display flow cytometry | peptide | concentration not given, added: 100 nM HPC4 |  | cells bound | 94.7% |
| CC(C(O)c1ccc(O)cc1)N1CCC(Cc2ccccc2)CC1 (stereo not drawn) | NMDA receptor | NMDA-evoked current, inhibitor, patch clamp | cultured hippocampal neurons | 3 µM, added: 100 µM NMDA and 3 µM glycine | reference: untreated | remaining activity | 30 ± 10% |
| O=CN/C=C/c1cc(O)ccc1O | native rod CNG channel | ion current, inhibitor, patch clamp | Ambystoma tigrinum, rod outer segment patch, inside-out | 100 µM, closed channels, 1 min pre-exposure, added: genistein 100 µM |  | genistein inhibition | decreased |
| O=c1cc(-c2cccc3ccccc23)[nH][nH]1 | ALPL (Homo sapiens, UniProt P05186) | enzyme activity, inhibitor, luminescence |  | added: CDP-star substrate, 100 mM DEA |  | IC50 | 3240 nM |
| COC(=O)C1=C(C)NC(C)=C([N+](=O)[O-])C1c1ccccc1C(F)(F)F (racemic) | rat L-type calcium channel | fast tail current, agonist, whole-cell patch clamp | GH3 | added: 100 mM Ba2+ |  | EC50 | 21 nM |
| COc1cccc2c1C(=O)c1c(O)c3c(c(O)c1C2=O)C[C@@](O)(C(=O)CO)C[C@@H]3O[C@H]1C[C@H](NC(=O)[C@@H]2CCCN2C(=O)CN)[C@H](O)[C@H](C)O1 |  |  | mouse, E0771 tumour-bearing, kidney | intravenous, 92 µmol/kg PhAc-ALGP-Dox |  | Tmax | 5 min |
| Nc1nc2c(ncn2[C@H]2C[C@@H]3OP(=O)(O)OC[C@H]3O2)c(=O)[nH]1 | cGMP antibody | non-acetylated cGMP EIA |  |  |  | EC50 | 5.28 nM |
| dynamin-1 | dynein-1 (TMR-labelled) | microtubule motility, single-molecule TIRF |  | pH 7.2, added: ATP 1 mM |  | run length | 1.24 µm |
| B1 (VEGF-D) | human VEGFR-3 | binding, ELISA |  | 1000 to 31.25 µg/mL coated |  | affinity constant | 264 ± 56.7 µg/mL |

| Substance | tested on | test | system | conditions | how to read | endpoint | value |
| --- | --- | --- | --- | --- | --- | --- | --- |
| CCCCCCCCCC[N+](C)(C)Cc1ccccc1 |  | ω-hydroxylation, substrate | human liver microsomes | added: NADPH |  | Km | 0.69 µM |
| O=c1c2nc(Br)n([C@@H]3O[C@@H]4COP(=O)(O)O[C@H]4[C@H]3O)c2nc2[nH]c(-c3ccccc3)cn12 | cGMP antibody | non-acetylated cGMP EIA |  |  |  | EC50 | 136 nM |
| CC1=C[C@H](O/C=C2/C(=O)O[C@@H]3c4ccccc4C[C@H]23)OC1=O | SMXL7-YFP (Arabidopsis thaliana) | confocal microscopy, item: nuclear SMXL7-YFP | Nicotiana benthamiana epidermal cells | 10 µM, 120 min, SMXL7-YFP with empty vector | reference: mock | reduction of SMXL7-YFP level | 23% |
| Cc1c2ccncc2c(C)c2c1[nH]c1ccc(OCCN(C)C)cc12 | PDGFR-β 3′-end G-quadruplex DNA | CD |  | concentration not given |  | binding stoichiometry | ~1 mol equiv |
| O=c1c(-c2ccc(O)cc2)coc2cc(O)cc(O)c12 | native rod CNG channel | ion current, patch clamp | Ambystoma tigrinum, rod outer segment patch, inside-out | 100 µM, 1 min, residual current after pre-exposure, closed channels, added: cGMP 2 mM |  | activation time constant | 20 ms |
| Cc1c(C)c2c(c(C)c1O)CCC(C)(COc1ccc(CC3SC(=O)NC3=O)cc1)O2 (stereo not drawn) |  | cytochrome c release, ELISA | BALB/cByJ female mouse liver mitochondria | 30 min | reference: alamethicin maximal release | EC20 | > 400000 nM |
| B2 | PCNA trimer, human | complex formation, gel filtration |  | concentration not given, pH 7.2 |  | molecular weight | ~149 kDa |
| benzalkonium chloride | dentin matrix metalloproteinases, human |  | acid-etched dentin | 0.5 % w/v, 60 s | reference: untreated | inhibition | 31% |
| CC[C@H]1OC(=O)[C@H](C)[C@@H](O[C@H]2C[C@@](C)(OC)[C@@H](O)[C@H](C)O2)[C@H](C)[C@@H](O[C@@H]2O[C@H](C)C[C@H](N(C)C)[C@H]2O)[C@](C)(O)C[C@@H](C)C(=O)[C@H](C)[C@@H](O)[C@]1(C)O | all pathogens |  | community-acquired pneumonia patients | Fine score below 70 |  | sensitive strains | 17.6% |
| CC(C)(C)c1cc(C(C)(C)C)c(NC(=O)c2c[nH]c3ccccc3c2=O)cc1O | CFTR R334W human | short-circuit current, potentiator | CFBE | 14.44 µM, added: forskolin 20 µM | reference: PKA-activated wild type | CFTR activity | 5 ± 1.1% |
| CCCCC1C(=O)N(c2ccccc2)N(c2ccccc2)C1=O |  | mitochondrial swelling | BALB/cByJ female mouse liver mitochondria | 30 min, added: succinate + rotenone | reference: CaCl2 maximal swelling | EC20 | > 400000 nM |
| EDQVDPRLIDGK | HPC4 antibody (mouse) | binding, yeast display flow cytometry | peptide | concentration not given, added: 100 nM HPC4 |  | cells bound | 97.9% |
| Cc1ccc2c(=O)c3cccc(CC(=O)O)c3oc2c1C | TBK1 | phosphorylation, inhibitor | THP-1 | up to 1 mM, 4 h, added: c-di-GMP |  | activity | inactive |
| DPRLI | HPC4 antibody (mouse) | binding, yeast display flow cytometry | peptide | concentration not given, added: 100 nM HPC4 |  | cells bound | 96.2% |
| Ac-DNCPFHYNP-NH2 (N-acetyl, C-amide) | mouse cathepsin G | inhibitor | peptide, wild type neutrophil lysate | 2.5 mM, 30 min preincubation, pH 8.0, 37 °C, added: N-Suc-AAPF-pNA 1 mM |  | inhibition | 20% |
| COc1ccc2c(c1)CC[C@@H]1[C@@H]2CC[C@]2(C)[C@@H](NCCCCCCN3C(=O)C=CC3=O)CC[C@@H]12 | human PLCβ |  | HEK-293T expressing B2 receptor | 2 µM, 1 h, added: bradykinin 250 nM |  | PLCδ-PH-GFP translocation | 0.116 |

Repeated from above:
| Substance | tested on | test | system | conditions | how to read | endpoint | value |
| --- | --- | --- | --- | --- | --- | --- | --- |
| Ac-DNCPYVPNA-NH2 (N-acetyl, C-amide) | mouse cathepsin G | enzyme activity | neutrophil lysate | 1.25 or 2.5 mM, pH 8.0, 37 °C |  | cathepsin G activity | no effect |
| CC[C@H]1OC(=O)[C@H](C)[C@@H](O[C@H]2C[C@@](C)(OC)[C@@H](O)[C@H](C)O2)[C@H](C)[C@@H](O[C@@H]2O[C@H](C)C[C@H](N(C)C)[C@H]2O)[C@](C)(O)C[C@@H](C)C(=O)[C@H](C)[C@@H](O)[C@]1(C)O | all pathogens |  | community-acquired pneumonia patients | Fine score below 70 |  | sensitive strains | 17.6% |
| Cc1c(C)c2c(c(C)c1O)CCC(C)(COc1ccc(CC3SC(=O)NC3=O)cc1)O2 (stereo not drawn) |  | cytochrome c release, ELISA | BALB/cByJ female mouse liver mitochondria | 30 min | reference: alamethicin maximal release | EC20 | > 400000 nM |
| Ac-DNCPFHYNP-NH2 (N-acetyl, C-amide) | mouse cathepsin G | inhibitor | peptide, wild type neutrophil lysate | 2.5 mM, 30 min preincubation, pH 8.0, 37 °C, added: N-Suc-AAPF-pNA 1 mM |  | inhibition | 20% |
| Ac-DNCQYVYNV-NH2 (N-acetyl, C-amide) | mouse neutrophil elastase | inhibitor | peptide, wild type neutrophil lysate | 2.5 mM, 30 min preincubation, pH 8.0, 37 °C, added: MeOSuc-AAPV-pNA 1 mM |  | inhibition | 89% |
